Results of several laboratories.
Compare with care: the assays were run in different laboratories. “And” joins repeats or separate records; there may be more than shown.
Target: Casein kinase I isoform delta (CSNK1D, Homo sapiens, UniProt P48730)

The inhibition of `CCn1cc(C(=O)O)c(=O)c2c(N)c(F)c(NC3CCCCC3)cc21` is reported as 0.4% (kinase activity; 0.1 µM, together with: ATP at Km).
`COc1cc(Nc2nccc(-c3cnn4nc(OC)ccc34)n2)cc(C(F)(F)F)c1` gave a remaining binding of 100% (binding, competition with immobilised ligand; 1 µM).
The inhibition of `C=CC(=O)N1Cc2nc(-c3cc(-c4cc(Cl)cnc4Cl)c(F)cc3F)n(-c3ccncn3)c2C1` is reported as 5% (cell-free assay, inhibitor; 1 µM).
For `CN1CC[C@@H](COc2cnc(C#N)cc2-c2ccn3nc(NC(=O)C4CC4)cc3c2)C1`, the inhibition was 2% (enzyme activity, inhibitor; 1 µM).
For `CNS(=O)(=O)Nc1nccc(Cc2c(C)c3ccc(Oc4ncccc4F)cc3oc2=O)c1F`, the remaining binding was 97% (cell-free assay, competition with immobilised ligand; 10 µM).
`C=C1CCCCCCCCCC(CO)C1=O` (stereo not shown) gave a remaining signal of 100% (cell-free assay; 10 µM).
With `NC(=O)C[C@H]1CCc2sc3ncnc(O[C@H]4CC[C@H](N5CCOCC5)CC4)c3c21` the inhibition was 24% (enzyme activity, inhibitor; 10 µM).
`C=CC(=O)N1CCCC(n2c(=O)c3ncccc3n(Cc3ccc(Oc4ccccc4)cc3)c2=O)C1` (stereo not shown) gave a remaining binding of 100% (cell-free assay, competition with immobilised ligand; 1 µM).
`CC(=O)N1c2ccc(-c3ccc(CNC(=O)c4cn5cc(-c6cnc(N)nc6)nc(N6CCOCC6)c5n4)cc3)cc2CC[C@@H]1C` has a remaining binding of 79% (KINOMEscan; 10 µM).
`O=C(Cc1ccc(OCc2ccccc2)cc1)NC1(C(=O)O)CCN(C(=O)c2ccc(-c3cccc(Cl)c3)cc2)CC1` — result for “activity vs control”: 96% (enzyme activity, inhibitor; 10 µM).
`CC(=O)Nc1ccc(-c2ccnc(NCC3CCC3)n2)cc1` has a remaining binding of 15% (cell-free assay, competition with immobilised ligand; 10 µM).
`CN1CCN(Cc2ccc(NC(=O)c3cccc(C#Cc4cnc(N)c5ncccc45)c3)cc2C(F)(F)F)CC1` has a remaining binding of 80% (cell-free assay, competition with immobilised ligand; 0.5 µM).
With `COc1ccc(NC(=O)Nc2ccc3c(c2)C(=O)N(C(C)CO)CC(C)C(CN(C)Cc2ccc4c(c2)OCO4)O3)cc1` (stereo not shown) the remaining activity was 124% (kinase activity, KinaseProfiler; 0.03 µM, species human; baseline: control).
`COCC12C(=O)NC3C4(C(OC)CC1O)C1CC5(O)C(OC)C(O)C(OC(C)=O)(C1C5OC(=O)c1ccccc1)C3(O)C(OC)C24` (stereo not shown) gave a remaining activity of 99% and 98% (kinase activity, inhibitor, ProQinase kinase profiling; 25 µM; baseline: control).
`O=C=[N][Ru-4]123([n]4c5ccc(O)cc5c5c6c(c7cc(F)c[n+]1c7c54)C(=O)NC6=O)[S+]1CC[S+]2CC[S+]3CC1` (stereo not shown) gave a remaining activity of 24% (enzyme activity; 100 nM, human enzyme, together with: 10 µM ATP; baseline: untreated).
`Cc1cccc(-c2ccc3nc(NC(=O)C4CCCO4)nn3c2)c1` (stereo not shown) gave a remaining activity of 82% (enzyme activity, Dundee kinase panel; 10 µM).
The remaining binding of `Nc1ncc2c(n1)-c1c([nH]c3ccc(C4=CCOCC4)cc13)CCC2` is reported as 97% (binding, competition with immobilised ligand; 1 µM).
For `Nc1nc(Nc2ccccc2)sc1C(=O)c1ccccc1`, the remaining activity was 14% (enzyme activity, inhibitor; 10 µM).
`Cc1cccc(-c2ccc3nc(NC(=O)C4CCCCC4)nn3c2)c1` has a remaining activity of 87% (enzyme activity, Dundee kinase panel; 10 µM).

Repeated from above:
`Cc1cccc(-c2ccc3nc(NC(=O)C4CCCO4)nn3c2)c1` (stereo not shown) gave a remaining activity of 82% (enzyme activity, Dundee kinase panel; 10 µM).
`CN1CCN(Cc2ccc(NC(=O)c3cccc(C#Cc4cnc(N)c5ncccc45)c3)cc2C(F)(F)F)CC1` has a remaining binding of 80% (cell-free assay, competition with immobilised ligand; 0.5 µM).
